Measured values gathered from unrelated publications.
Compare with care: the assays were run in different laboratories. Values joined by “and” are separate records of one study, mostly repeats; a detail may differ. Numbers after ± are the reported error.

Structure (SMILES)	assay	test system	conditions	half-life
Cc1cccc(CNC(=O)c2cn(CCNC(=O)c3ccccc3Sc3c([N+](=O)[O-])ncn3C)c3cc4c(cc3c2=O)OC(F)(F)O4)n1		Sprague-Dawley rat, male, whole blood	intravenous, 5 mg/kg of parent compound	0.6 ± 0.18 h
COC(=O)C1=CO[C@@H](O[C@@H]2O[C@H](CO)[C@@H](O)[C@H](O)[C@H]2O)[C@@H]2C(CO)=CC[C@H]12		rat, plasma	oral, 500 mg/kg Eu + 217 mg/kg Pc extract, dosed as combined Eu and Pc extracts	2.27 ± 1.39 h
CSc1ccccc1C(=O)NCCn1cc(C(=O)NCc2cccc(C)n2)c(=O)c2cc3c(cc21)OC(F)(F)O3		Sprague-Dawley rat, male, plasma	intravenous, 5 mg/kg of parent compound	0.44 ± 0.09 h
CCc1cc(C(=O)NC)c2nccc(N3CCc4c(cc(Cn5ccnc5)cc4-c4cn(C)nc4C(F)(F)F)C3=O)c2c1		Sprague Dawley rat, male, plasma	oral, 100 mg/kg once daily, 7 days, toxicokinetic satellite group	2.1 h
C1=C/COCc2cc(ccc2OCCN2CCCC2)Nc2nccc(n2)-c2cccc(c2)COC/1	LC-MS/MS	Sprague-Dawley rat, male, plasma	oral, 36 mg/kg, with: isavuconazole 20 mg/kg oral	14.4 ± 12.8 h
CCCCCOC(=O)Nc1nc(=O)n([C@@H]2O[C@H](C)[C@@H](O)[C@H]2O)cc1F		Sprague-Dawley rat, plasma	oral, 200 mg/kg, with: chitooligosaccharide 20 min before glucosamine 250 mg/kg	0.324 ± 0.0643 h
CC(C)[C@@H](CN1CC[C@@](C)(c2cccc(O)c2)[C@@H](C)C1)NC(=O)[C@H]1Cc2ccc(O)cc2CN1		Sprague-Dawley rat, plasma	intraperitoneal, 10 mg/kg	29.6 h
Oc1ccc(/C=C/c2cc(O)cc(O)c2)cc1		male Wistar rats, plasma	oral, 10 mg/kg	6.7 ± 1.2 h
Cn1nc2c(=O)n(C3CC3)ncc2c1[C@](O)(c1cnc(C(F)(F)F)c(Cl)c1)C(F)(F)F		Sprague-Dawley rat, male	intravenous, 1 mg/kg	15 ± 1.2 h
O=C(O)c1cc(O)c(O)c(O)c1		rat, plasma	oral, 500 mg/kg extract, extract	2.52 ± 0.13 h
CCn1ccc2c([C@](O)(c3cnc(C(F)(F)F)c(Cl)c3)C3CC3)n(C)nc2c1=O		Sprague-Dawley rat, male	intravenous, 1 mg/kg	2.8 ± 0.28 h
O=C(Nc1ccc(OC(F)(F)Cl)cc1)c1cnc(N2CC[C@@H](O)C2)c(-c2ccn[nH]2)c1		Sprague-Dawley rat, male, plasma	oral, 8 mg/kg	3.21 ± 0.54 h
N=C(N)NCCNC(=O)C1(Nc2ccccc2)CCN(Cc2ccccc2)CC1		Sprague-Dawley rats, both sexes, plasma	intravenous, 2.5 mg/kg, mean of both sexes	0.9 h
NCc1cc2c(cc1F)C(=O)N(C1CCC(=O)NC1=O)C2 (stereo not drawn)		male Sprague-Dawley rat, whole blood		> 3 h
O=C(O)C1=CO[C@@H](O[C@@H]2O[C@H](CO)[C@@H](O)[C@H](O)[C@H]2O)[C@@H]2C(CO)=CC[C@H]12		rat, plasma	oral, 500 mg/kg Eu + 217 mg/kg Pc extract, dosed as combined Eu and Pc extracts	1.91 ± 0.34 h
Cc1nn(C2CC2)c(=O)c2nn(C)c(Cc3ccc(C(F)(F)F)c(C#N)c3)c12		Sprague-Dawley rat, male	intravenous, 1 mg/kg	14 ± 1.4 h
O=C1C[C@@H](c2ccc(O)cc2)Oc2cc(O)cc(O)c21		Sprague-Dawley rat, plasma	intravenous bolus, 1 mg/kg	1.63 ± 0.47 h
Cc1nc2cccc(OCC(C)(C)C(=O)NC(C)C)c2c(N)c1C(=O)O.Cc1nc2cccc(OCC(C)(C)C(=O)NC(C)C)c2c(N)c1C(=O)O.O=S(=O)(O)O		male Sprague-Dawley rat, plasma	oral, 30 mg/kg	2.52 h
CCn1ccc2c([C@@](O)(CC)c3ccc(C(F)(F)F)nc3)n(C)nc2c1=O		Sprague-Dawley rat, male	intravenous, 1 mg/kg	2.5 ± 0.77 h
Cc1cc(NC(=O)c2cccc(NC(=O)/C=C/CN(C)C)c2)ccc1Nc1nccc(-c2cccnc2)n1		rat Wistar male, plasma	1 µM	6.23 h and 6.11 h
OCC1=C[C@@H](O)[C@@H]2C=CO[C@@H](O[C@@H]3O[C@H](CO)[C@@H](O)[C@H](O)[C@H]3O)[C@H]12		rat, plasma	oral, 500 mg/kg Eu extract, dosed as Eu extract	2.37 ± 1.72 h
Cc1cccc(CNC(=O)c2cn(CCNC(=O)c3ccccc3S)c3cc4c(cc3c2=O)OC(F)(F)O4)n1		Sprague-Dawley rat, male, whole blood	intravenous, 5 mg/kg	5.43 ± 1.64 h
Cc1ccc(S(=O)(=O)n2cc3c4c2C(=O)C(NCc2ccc(Cl)cc2)=CC4=NCC3)cc1		Sprague-Dawley rat, plasma	intravenous, 5 mg/kg, two-compartment model	1.79 h and 0.82 h and 1.33 h
CC(C)c1nc(N(C)S(C)(=O)=O)nc(-c2ccc(F)cc2)c1/C=C/[C@@H](O)C[C@@H](O)CC(=O)O		Wistar albino rat, both sexes, plasma	oral, 20 mg/kg	8.4 h and 24.6 h and 41.8 h and 7.6 h and 15.5 h and 5.8 h and 10.5 h

Excerpt of the above:
Structure (SMILES)	assay	test system	conditions	half-life
CC(C)[C@@H](CN1CC[C@@](C)(c2cccc(O)c2)[C@@H](C)C1)NC(=O)[C@H]1Cc2ccc(O)cc2CN1		Sprague-Dawley rat, plasma	intraperitoneal, 10 mg/kg	29.6 h
Oc1ccc(/C=C/c2cc(O)cc(O)c2)cc1		male Wistar rats, plasma	oral, 10 mg/kg	6.7 ± 1.2 h
Cn1nc2c(=O)n(C3CC3)ncc2c1[C@](O)(c1cnc(C(F)(F)F)c(Cl)c1)C(F)(F)F		Sprague-Dawley rat, male	intravenous, 1 mg/kg	15 ± 1.2 h
